Results collected from several papers.
Numbered parts are unrelated; each lists some results of a single study. Substitutions count along the parent as printed.

Series 1 — technique: RNA Bind-n-Seq; molecule type: RNA; medium: in vitro; concentration: 365 nM; relative to: no-protein control; direction: higher = stronger binding
Target: RNA binding protein fox-1 homolog 2, RRM domain, GST-SBP tag (RBFOX2, Homo sapiens, UniProt O43251-10, residues 100-194)
Notes: natural RNA segment, single round, ends assumed
Target sequence (chain): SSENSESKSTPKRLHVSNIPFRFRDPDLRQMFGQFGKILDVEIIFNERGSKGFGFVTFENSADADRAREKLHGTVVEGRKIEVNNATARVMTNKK
For `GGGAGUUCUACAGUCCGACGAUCGACUGACUUUCUUACAAAAUGCAUUUGGAAACCAGACCUUUGCUACCCACCAAUGUCUCUGGGUUUUGUACCAGUCCCUGCUCUCAGGCCACCCUGCCCAGGACCCAGGCUGGAAUUCUCGGGUGCCAA`, “RBNS enrichment (R)” read 0.981.
`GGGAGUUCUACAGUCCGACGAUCUAAGGAAUUUUAAUGUUACUUUUUGAGUAACGACUGAGUUACCAGCAUUCUUGAUUCUUAGCGCUUUCGUGGUGCGUGUUUAUGAGAUAUUAGAACAGCGGAGGCUCUAAUGGAAUUCUCGGGUGCCAA` — result for “RBNS enrichment (R)”: 0.284.
`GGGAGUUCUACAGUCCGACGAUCCUGGUAUCCUGCCAAGCCUGGUUGUAAUUUGUAACCAUUUUCUAUUUGUGCAAACUCUGUAAAUAUGUGUUUAAACAAAUGUAAUAUUUUGUACAAGAUACACUGGAGAAUGGAAUUCUCGGGUGCCAA` — result for “RBNS enrichment (R)”: 0.311.
For `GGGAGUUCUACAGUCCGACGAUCUCACAUGCAACAACGGAAGGAGAUUCAAGAGUCUGCCAUCCCUUAGCAGCCCCUAAGUGGGCCUCUAGAGCUGAAGACACACCCCUGGUGCCACCAGCCUGUGUGGCCCCUGGAAUUCUCGGGUGCCAA`, “RBNS enrichment (R)” read 0.77.
Under “RBNS enrichment (R)”, `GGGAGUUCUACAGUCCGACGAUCGCUUCCCGCCAGUUUCUCUCAGUUUGCCAAAGAGACCAUUGAAUGUUUUUGAAACCAAAGAGCACACUUCAACAUACAUGGGCUGCACCAUAUUGAGAUCUGAGCCUUGGUGGAAUUCUCGGGUGCCAA` is recorded as 4.17.
Under “RBNS enrichment (R)”, `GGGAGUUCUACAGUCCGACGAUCUGGUCUGCACAUGAUACUCAGCCUAAAGACCAUGGAUCGCUUUGAUGACCACAAGGGCCCCACCAUCACUUUGACCCAGAUUGUGUGACAUACACCUGAGAGGAAUUGAGUGGAAUUCUCGGGUGCCAA` is recorded as 1.19.
`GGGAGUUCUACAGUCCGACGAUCAUGACUGUGUUCACUUAAGUUUAGAGAAACACUGGGUUUUGCUAAACUCGGUUAACAAAAGCCACUGGUAACUGAAGGUAUUUAAGCUAGGGUCAUUUGAAAGCUUCAGCUGGAAUUCUCGGGUGCCAA` — result for “RBNS enrichment (R)”: 0.275.
`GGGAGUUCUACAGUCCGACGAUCUAAAAGCCAGAGCAUUAAGCUUACACAGACUACUUUCUAUGCAAGACAGAGAUAUGGACUAGGUUACAGGAAACGUGCACCGUUGGCUCCACAGACAAGAAGUGCAUUGCUGGAAUUCUCGGGUGCCAA`: “RBNS enrichment (R)” 0.222.
Under “RBNS enrichment (R)”, `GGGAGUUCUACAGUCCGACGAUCAAGGUGGUCUCUUUUGCUUGCUUCUUUUAAAUGUUUUCCUUUGUAUUUGAUGACAAAUGUUUGUAUCCUUACAAAAGACCUUGUAUGUUUACGAAUUCUGCCAUGCAGCGUGGAAUUCUCGGGUGCCAA` is recorded as 1.44.
For `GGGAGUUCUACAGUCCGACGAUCAGCCUGCUUCCAUCCAUGGGUGGGAAGACUUCAGCACAAAGGAAAGACUAAUUCUUGUCAGGCAUUUUUGAAAAGGCUGAUUAUGUGUAUCAAGGUACAGCAUCGUAGGGUGGAAUUCUCGGGUGCCAA`, “RBNS enrichment (R)” read 0.37.
`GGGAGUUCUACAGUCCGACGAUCUUCUCAUCCCCUGCUUGGCUUCUCUGCAUGUGGUCAUCUGCUGUGGCUUGGUGUUUAAUGGGUUAAAAAUAAGCCACUGCCUGACAUCCCAACAUUUGACACCCCAGCAAUGGAAUUCUCGGGUGCCAA`: “RBNS enrichment (R)” 10.1.
`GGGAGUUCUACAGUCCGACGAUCACGGCCUAGGUGGACAGAUGGACGCCGCUGCCUAGGUGGACAGACGGAUGCCUGCCACCGCCGGGGCAGGGCCAGAUGCCGAUGCUGGGUGUCCAGACUCAGAAGGCUUGUGGAAUUCUCGGGUGCCAA` — result for “RBNS enrichment (R)”: 0.345.

Series 2 — organism: Saccharomyces cerevisiae; read-out: binding; technique: competitive growth deep sequencing; molecule type: peptide; strain: cyclin D2-Cln2 fusion strain; concentration: concentration not given; notes: peptide tiling library; direction: direction not given
`IFNKPECGRVQRAIFQ`: “growth enrichment score” -1.75.
`DWDTVERQEEEAPSWD` — result for “growth enrichment score”: 0.76.
Under “growth enrichment score”, `ASVLSKPIFCFVKD` is recorded as -0.295.
For `SNFFDVIKQLFSDEKN`, “growth enrichment score” read -2.97.

Series 3 — technique: DHFR PCA, deep sequencing; medium: yeast; together with: (+)-ABA 2500 µM; relative to: wild-type fitted maximum; direction: higher = stronger binding
Target: ABI1, truncated, D143A, DHFR fusion (Arabidopsis thaliana)
Notes: methotrexate growth selection, single substitutions
Starting sequence: PYL1, truncated, DHFR fusion (Arabidopsis thaliana); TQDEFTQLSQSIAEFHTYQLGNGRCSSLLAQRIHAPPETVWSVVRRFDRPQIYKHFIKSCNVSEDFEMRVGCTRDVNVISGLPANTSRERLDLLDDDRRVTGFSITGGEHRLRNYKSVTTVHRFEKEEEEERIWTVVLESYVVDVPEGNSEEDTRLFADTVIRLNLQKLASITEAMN; partner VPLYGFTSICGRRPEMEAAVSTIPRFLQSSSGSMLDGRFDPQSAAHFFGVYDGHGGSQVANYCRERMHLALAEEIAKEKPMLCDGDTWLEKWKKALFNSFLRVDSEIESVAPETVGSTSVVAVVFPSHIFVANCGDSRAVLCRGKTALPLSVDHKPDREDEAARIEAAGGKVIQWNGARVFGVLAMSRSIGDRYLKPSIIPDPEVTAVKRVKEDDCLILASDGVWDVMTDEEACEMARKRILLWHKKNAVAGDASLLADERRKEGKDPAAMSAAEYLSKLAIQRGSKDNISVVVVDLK
Under “relative binding score”, `E127R` is recorded as 95.5%.
`T173A` — result for “relative binding score”: 96.8%.
Under “relative binding score”, `E152W` is recorded as 93.6%.
`E67H`: “relative binding score” 98.1%.
For `T86M`, “relative binding score” read 93.8%.
Under “relative binding score”, `F15W` is recorded as 103%.
Under “relative binding score”, `T73M` is recorded as 92.5%.
For `N77H`, “relative binding score” read 103%.
`F5Q`: “relative binding score” 108%.
Under “relative binding score”, `P37D` is recorded as 84.3%.
For `E174H`, “relative binding score” read 89.8%.
For `A84W`, “relative binding score” read 57.8%.
For `P37M`, “relative binding score” read 90%.
Under “relative binding score”, `G23Q` is recorded as 93.7%.
For `G71H`, “relative binding score” read 87.5%.
Under “relative binding score”, `G81H` is recorded as 88.6%.

Series 4 — technique: aptamer microarray, sandwich; molecule type: DNA with 2'F-ANA; medium: in vitro; concentration: 200 nM; together with: Cy3 exosite-II aptamer, 400 nM; direction: higher = stronger binding; oligonucleotide: GGTTGGTGTGGTTGG
Target: Prothrombin, mature alpha-thrombin (F2, Homo sapiens, UniProt P00734)
Notes: whole 15-mer aptamer, many near background
`2'F-ANA at 4 5 6 9 11 12 15` — result for “mean fluorescence intensity”: 91.6 a.u.
`2'F-ANA at 2 7 9 11 13` — result for “mean fluorescence intensity”: 336 a.u.
`2'F-ANA at 5 7 8 10 11 12` — result for “mean fluorescence intensity”: 50.9 a.u.
`2'F-ANA at 1 3 6 8 10 11 14 15` — result for “mean fluorescence intensity”: 59.3 a.u.
For `2'F-ANA at 4 5 6 7 10 12 15`, “mean fluorescence intensity” read 49.1 a.u.
`2'F-ANA at 2 4 5 6 7 9 13`: “mean fluorescence intensity” 51.2 a.u.
`2'F-ANA at 1 2 4 5 6 11 12`: “mean fluorescence intensity” 80.5 a.u.
`2'F-ANA at 3 5 9 12 15` — result for “mean fluorescence intensity”: 230 a.u.
Under “mean fluorescence intensity”, `2'F-ANA at 2 3 6 7 9 11 13 15` is recorded as 434 a.u.
`2'F-ANA at 1 3 4 9 12 14`: “mean fluorescence intensity” 78.6 a.u.
For `2'F-ANA at 2 4 7 8 10 13 15`, “mean fluorescence intensity” read 79.6 a.u.
Under “mean fluorescence intensity”, `2'F-ANA at 12 13 14` is recorded as 264 a.u.
`2'F-ANA at 2 3 5 7 8 10 13 15` — result for “mean fluorescence intensity”: 54.5 a.u.
`2'F-ANA at 1 2 4 7 8 9 10 11`: “mean fluorescence intensity” 48.9 a.u.
For `2'F-ANA at 1 2 3 4 5 10 11 13`, “mean fluorescence intensity” read 53.4 a.u.
For `2'F-ANA at 2 4 5 7 9 10 11 15`, “mean fluorescence intensity” read 146 a.u.
For `2'F-ANA at 2 3 5 9 10 12 14`, “mean fluorescence intensity” read 49.5 a.u.
`2'F-ANA at 5 6 7 8 9 11 12 14`: “mean fluorescence intensity” 51.5 a.u.
`2'F-ANA at 1 3 4 6 7 8 11 12 13 15`: “mean fluorescence intensity” 258 a.u.
`2'F-ANA at 2 5 8 9 12 13 14 15` — result for “mean fluorescence intensity”: 47.6 a.u.
`2'F-ANA at 1 2 3 6 7 8 9 10 11 13 14`: “mean fluorescence intensity” 62.9 a.u.
`2'F-ANA at 1 2 4 5 6 8 9 11 13 14`: “mean fluorescence intensity” 55.3 a.u.
`2'F-ANA at 1 4 6 8 9 10 11 12 13 14` — result for “mean fluorescence intensity”: 49.3 a.u.
Under “mean fluorescence intensity”, `2'F-ANA at 1 2 3 5 7 9 11 12 14 15` is recorded as 89.7 a.u.
`2'F-ANA at 1 3 5 6 7 10`: “mean fluorescence intensity” 49.2 a.u.

Further values, each from its own experiment
`PhoQ, residues 284 288 289 292 302 303 TNASYF` gave a fold induction of 2.59 (PhoP, residues 12 14 15 18 19 NYFTV (Escherichia coli, UniProt P23836); Sort-seq, measured: YFP reporter; E. coli; PhoQ-PhoP variant library, together with: 10 µM Mg2+; relative to: high Mg2+ state, higher = stronger signaling).

Repeated from above (series 4):
`2'F-ANA at 2 3 5 7 8 10 13 15` — result for “mean fluorescence intensity”: 54.5 a.u.
`2'F-ANA at 1 2 4 7 8 9 10 11`: “mean fluorescence intensity” 48.9 a.u.
For `2'F-ANA at 1 2 3 4 5 10 11 13`, “mean fluorescence intensity” read 53.4 a.u.
For `2'F-ANA at 2 4 5 7 9 10 11 15`, “mean fluorescence intensity” read 146 a.u.
For `2'F-ANA at 2 3 5 9 10 12 14`, “mean fluorescence intensity” read 49.5 a.u.
`2'F-ANA at 5 6 7 8 9 11 12 14`: “mean fluorescence intensity” 51.5 a.u.
`2'F-ANA at 1 3 4 6 7 8 11 12 13 15`: “mean fluorescence intensity” 258 a.u.
`2'F-ANA at 2 5 8 9 12 13 14 15` — result for “mean fluorescence intensity”: 47.6 a.u.
